Measurements pooled from the literature.
Lines come from different studies, so protocols differ. ± gives the spread as reported.

Compound | test | test system | setting | scale | remaining compound
CO[C@@H](C[C@H]1C(C)=CC[C@@H]2[C@]3(C)C[C@H](O[C@@H]4O[C@@H](C)[C@H](O)[C@@H](O)[C@H]4O)[C@@H](O)C(C)(C)[C@H]3CC[C@]21C)[C@H](N)C(=O)O | – | simulated gastric fluid with pepsin | 1 µM, 60 min, pH 1.2 | – | 99.8%
C=CC(=O)Nc1ccc(-n2nc3c(=O)[nH]nc(N)c3c2-c2oc3ccc(Br)cc3c2C)cc1 | – | BALB/c nude mouse whole blood | 1 µM, 2 h, 37 °C | – | 61.4%
CC(C)(C)[C@H](NC(=O)c1ccc(Oc2ccc(C(=O)N[C@H]3CCCC[C@@H]3O)cc2)cc1)C(=O)NCCN1CCCC1 | – | human liver microsomes | 1 µM, 20 min, pH 7.4 | – | 88.5%
O=C(NC1CCC(F)(F)CC1)C(c1cncnc1)N(C(=O)C(F)Cl)c1ccc(-c2cncs2)cc1 (centres unmarked) | – | mouse liver microsomes | concentration not given, 0.3333 h, pH 7.4 | – | 59.7%
Cc1cc(C)nc(NC(=S)N2CCN(Cc3ccc(C(F)(F)F)cc3)CC2)c1 | – | aqueous buffer with 5 mM glutathione | 48 h | – | > 95%
CC(C)C[C@H](NC(=O)[C@H](CO)NC(=O)[C@H](CCC(=O)O)NC(=O)CNC(=O)[C@H](C)NC(=O)OCc1ccccc1)C(=O)N[C@@H](Cc1ccc(O)cc1)C(=O)N[C@@H](CCC(=O)O)C(N)=O | – | human plasma | 0 min, 37 °C | – | 100%
[2H]C(Cc1c[nH]c2ccccc12)(Nc1ccccc1)C(=O)O (centres unmarked) | – | human liver microsomes | 1.5 µM, 120 min, pH 7.4, mean of replicates | baseline: 0 min | 83.6%
COc1ccc2c(c1)C(=O)C(=C[O-])C2.[Na+] | – | HEPES buffer | 20 h, pH 7.4 | – | 97%
O=C(c1ccc(-c2ccccc2)cc1)N1CCCCC1 | – | pooled human liver microsomes | 2 µM, 40 min, without NADPH | – | 92%
C=C(NC(=O)c1csc(-c2nc3c(cc2O)-c2nc(cs2)C(=O)NC(C(C)O)C(=O)NC(=C(C)OC)c2nc(cs2)C(=O)NC2c4nc(cs4)C(=O)NC(COC(=O)c4c5c6c(cccc6n4O)COC(=O)C(OC4CC(C)(O)C(N(C)C)C(C)O4)C2OC5)c2nc-3cs2)n1)C(N)=O (centres unmarked) | – | human liver microsomes | 2 µM, 60 min, together with: NADPH | – | 75%
C/C(=N\OCCCN1CCOCC1)c1ccc(C(F)(F)F)cc1 | – | mouse liver microsomes | 30 min | – | 21.5%
COc1cc(-c2cncc(-c3ccc(N4CCN(C)CC4)cc3)c2C)cc(OC)c1OC | – | CD-1 mouse liver microsomes male | 1 µM, 1 h, pH 7.4 | – | 2%
C[C@](C(=O)NC1CCC(F)(F)CC1)(c1cncnc1)N(C(=O)[C@H](F)Cl)c1ccc(OC(F)(F)F)cc1 | – | mouse liver microsomes | concentration not given, 0.5 h, pH 7.4 | – | 25.8%
COc1ccc(CSc2ncccn2)cc1OS(=O)(=O)c1ccc([N+](=O)[O-])cc1 | – | mouse plasma | 1 h | – | 100%
Cc1cc(C)nc(NC(=S)N2CCN(c3ccc(C(F)(F)F)cn3)CC2)c1 | – | mouse liver microsomes | 1 µM, 15 min | – | 70.2 ± 0.7%
Cc1cnc(Nc2ccc(C3CCN(C)CC3)c(F)c2)nc1Nc1ccc(Cl)c(NS(=O)(=O)C(C)(C)C)c1 | – | mouse liver microsomes | 1 µM, 1 h | – | 100%
[2H]C1([2H])CC[C@@H](C[C@@H](C#N)NC(=O)[C@@H]2[C@@H]3[C@H](CN2C(=O)[C@@H](NC(=O)C(F)(F)F)C(C)(C)C)C3(C)C)C(=O)N1 | – | mouse liver microsomes | 60 min, together with: NADPH | – | 1.9%
C=CC(=O)Nc1ccc(-n2nc3c(=O)[nH]nc(N)c3c2-c2oc3cc(F)ccc3c2C)cc1 | – | BALB/c nude mouse whole blood | 1 µM, 5 h, 37 °C | – | 20.9%
CC[C@H](C)[C@H](NC(=O)[C@@H](NC(=O)[C@H](CCC(=O)O)NC(=O)[C@H](C)NC(=O)[C@H](C)NC(=O)[C@H](CCC(=O)O)NC(=O)[C@H](Cc1ccc2ccccc2c1)NC(=O)[C@H](Cc1ccc(OCc2ccccc2[N+](=O)[O-])cc1)NC(=O)[C@@H](NC(=O)[C@@H](NC(=O)[C@H](CCCNC(=N)N)NC(=O)[C@H](C)NC(=O)[C@H](CC(N)=O)NC(=O)[C@H](CCCCN)NC(=O)[C@H](CCCNC(=N)N)NC(=O)[C@H](CCCCN)NC(=O)[C@H](CCCNC(=N)N)NC(=O)[C@H](CCCCN)NC(=O)[C@@H]1CCCN1C(=O)[C@H](CCCNC(=N)N)NC(=O)[C@H](CCCCN)NC(=O)[C@H](CCCNC(=N)N)NC(=O)[C@H](CCCNC(=N)N)NC(C)=O)C(C)C)[C@@H](C)O)[C@@H](C)CC)C(N)=O | HPLC | ambient light | 24 h | – | 99%
CC1(C)OB(c2cc(C(F)(F)F)ccc2C=O)OC1(C)C | – | HEPES buffer | 20 h, pH 7.4 | – | 0%
COc1cc2cn[nH]c2nn1 | LC-MS/MS | mouse liver S9 fraction, 0.25 mg/mL | 3 µM, 30 min, together with: NADPH 1 mM | – | 80.8%
C=CC(=O)Nc1ccc(-n2nc3c(=O)[nH]nc(N)c3c2-c2oc3ccc(C)cc3c2C)cc1 | – | BALB/c nude mouse whole blood | 1 µM, 0.5 h, 37 °C | – | 84.6%

Compound | test | test system | setting | scale | remaining compound
CC(C)C[C@@H]1NC(=O)[C@H](C(C)C)NC(=O)[C@H](Cc2c[nH]c3ccccc23)NC(=O)[C@@H]2CSSC[C@H](NC(=O)[C@H](Cc3ccc(O)cc3)NC(=O)[C@H](C(C)C)NC(=O)[C@H](CCCNC(=N)N)NC(=O)CNC(=O)[C@H]3CCCN3C1=O)C(=O)N[C@@H](CCC(N)=O)C(=O)N1CCC[C@H]1C(=O)NCC(=O)N[C@@H](Cc1c[nH]c3ccccc13)C(=O)N2 | – | human plasma | 1 h | – | > 90%
C=CC(=O)Nc1cccc(Cn2ncc3cnc(Nc4cnn(CCOC)c4)nc32)c1 | – | CD-1 mouse whole blood | 5 µM, 0 min | – | 100%
O=Cc1c(O)c(C=O)c(O)c(C=O)c1O | – | HEPES buffer | 1 mM, 20 h, pH 7.4, 10% acetonitrile | – | 74%
CCOC(=O)c1c(C(=O)OC)cn(CC(c2cn(C)c3ccccc23)c2cn(C)c3ccccc23)c1C | HPLC-ESI-MS | EMEM cell medium | 72 h, 37 °C | – | 95.6%
CCC(=O)N(CC#N)S(=O)(=O)c1ccc(C)cc1 | HPLC-MS | HEPES buffer | 1 h, pH 7.4 | – | 80%
[2H]C1([2H])C[C@@H](C[C@@H](C#N)NC(=O)[C@@H]2[C@@H]3[C@H](CN2C(=O)[C@@H](NC(=O)C(F)(F)F)C(C)(C)C)C3(C)C)C(=O)N1 | – | human liver microsomes | 60 min, together with: NADPH | – | 70.1%
Cc1ccc(C(C)C)cc1.O=C(N=P12CN3CN(CN(C3)C1)C2)c1[c-]cccc1.[Cl-].[Ru+2] | – | DMSO-d6 | 2.5 h | – | > 99%
CN(Cc1cc(C2CC2)on1)C(=O)c1cccc(-c2ccc(F)cc2)c1 | – | human liver microsomes | 2 µM, 5 min, pH 7.5, without ABT | – | 85.4%
C=CC(=O)NCc1ccc(-n2nc3c(=O)[nH]nc(N)c3c2-c2oc3ccc(C)cc3c2C)cc1 | – | BALB/c nude mouse whole blood | 1 µM, 1 h, 37 °C | – | 91.3%
COc1cc(-c2cncc(-c3ccc(N4CCNCC4)cc3)c2C)cc(OC)c1F | – | CD-1 mouse liver microsomes male | 1 µM, 1 h, pH 7.4 | – | 66%
CCCCN1C(=O)c2cccc3c(N4CC[N+](C)(C5OC(C(=O)O)C(O)C(O)C5O)CC4)ccc(c23)C1=O (centres unmarked) | – | human liver microsomes | 3.19 nM, 24 h, 4 °C | – | 95.6%
Cc1ccc(OCC(=O)N(Cc2cccs2)c2ccn[nH]2)cc1 | – | rat plasma | 750 ng/mL, 24 h, 37 °C, unit not given | baseline: time zero | 0.3
O=S(=O)(Nc1ccc(OC(F)(F)F)cc1)N1CCCC(C2c3ccc(F)cc3CCc3cc(F)ccc32)C1 (centres unmarked) | – | liver microsomes | 10 µM, 30 min | – | 53%
CS(=O)(=O)c1ccc(-c2cc(Cl)c(C(=O)N[C@@H](CNC(=O)CNC(=O)c3cccc(NC(=N)N)c3)C(=O)O)c(Cl)c2)cc1 | – | mouse liver microsomes | 45 min | – | 121%
O=Cc1ccc2cccc(O)c2n1 | – | HEPES buffer | 20 h, pH 7.4 | – | 35%
O=C(NC1CCC(F)(F)CC1)C(c1cncnc1)N(C(=O)C(F)Cl)c1ccc(OC(F)(F)F)cc1 (centres unmarked) | – | mouse liver microsomes | concentration not given, 0.25 h, pH 7.4 | – | 98.8%
O=Cc1cc(C(F)(F)F)cc(C(F)(F)F)c1 | – | HEPES buffer | 20 h, pH 7.4 | – | 20%
Nc1nc(-c2ccccc2)nc2[nH]nc(Nc3ccc(F)cc3)c12 | – | human liver microsomes | time not given, metabolic stability | – | 34%
O=C=Nc1cc(C(F)(F)F)cc(C(F)(F)F)c1 | – | HEPES buffer | 20 h, pH 7.4 | – | 39%
Cc1ccc2oc(-c3c4c(N)n[nH]c(=O)c4nn3-c3ccc(NC(=O)/C=C/CN(C)C)cc3)c(C)c2c1 | – | BALB/c nude mouse whole blood | 1 µM, 0.5 h, 37 °C | – | 92.5%
O=Cc1cc(OCc2ccccc2)ccc1B(O)O | – | HEPES buffer | 20 h, pH 7.4 | – | 90%
CC(C)(C)[C@H](NC(=O)C(F)F)C(=O)N1C[C@H]2[C@@H]([C@H]1C(=O)N[C@H](C#N)C[C@@H]1CCCNC1=O)C2(C)C | – | mouse liver microsomes | 60 min | – | 99.6%
